{"data": "Results gathered from unrelated publications", "note": "A part holds a random share of what one study measured.", "chain of UniProt Q9BXA7 (whole entry, looked up)": "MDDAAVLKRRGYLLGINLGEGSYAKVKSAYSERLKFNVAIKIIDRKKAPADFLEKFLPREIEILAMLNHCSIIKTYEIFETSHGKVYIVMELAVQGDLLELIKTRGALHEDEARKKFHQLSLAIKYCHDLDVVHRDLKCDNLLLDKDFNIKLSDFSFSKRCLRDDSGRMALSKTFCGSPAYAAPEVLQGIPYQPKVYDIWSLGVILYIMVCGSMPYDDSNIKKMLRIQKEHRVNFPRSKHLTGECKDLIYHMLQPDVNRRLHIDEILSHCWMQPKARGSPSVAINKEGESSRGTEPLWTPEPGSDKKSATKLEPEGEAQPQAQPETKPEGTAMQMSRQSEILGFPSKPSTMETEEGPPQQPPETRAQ", "chain of UniProt Q9HAZ1 (whole entry, looked up)": "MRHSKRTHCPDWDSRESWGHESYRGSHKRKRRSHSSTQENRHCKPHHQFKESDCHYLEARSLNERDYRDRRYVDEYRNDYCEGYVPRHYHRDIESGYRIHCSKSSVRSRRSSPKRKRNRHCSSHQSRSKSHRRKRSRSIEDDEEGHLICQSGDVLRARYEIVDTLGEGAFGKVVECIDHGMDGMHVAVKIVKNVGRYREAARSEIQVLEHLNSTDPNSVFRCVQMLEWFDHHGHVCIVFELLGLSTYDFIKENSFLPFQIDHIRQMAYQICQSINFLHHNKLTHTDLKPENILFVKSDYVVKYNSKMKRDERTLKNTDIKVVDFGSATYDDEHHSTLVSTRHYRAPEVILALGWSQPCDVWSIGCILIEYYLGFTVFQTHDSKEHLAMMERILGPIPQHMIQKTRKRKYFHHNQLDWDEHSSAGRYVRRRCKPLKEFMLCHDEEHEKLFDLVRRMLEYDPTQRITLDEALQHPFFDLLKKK"}
{"data": "Study 1", "target": "Eukaryotic initiation factor 4A-I (EIF4A1, Homo sapiens, UniProt P60842, residues 1-406, full length assumed)", "method": "RNA Bind-n-Seq", "form": "RNA", "sample": "in vitro", "concentration": "15 pmol", "setting": "4-mer, random 30-nt RNA, single round", "together with": "3 µM DMDA-PatA, 2 mM AMP-PNP", "reference": "input library", "direction": "higher = stronger binding", "chain of UniProt P60842 (whole entry, looked up)": "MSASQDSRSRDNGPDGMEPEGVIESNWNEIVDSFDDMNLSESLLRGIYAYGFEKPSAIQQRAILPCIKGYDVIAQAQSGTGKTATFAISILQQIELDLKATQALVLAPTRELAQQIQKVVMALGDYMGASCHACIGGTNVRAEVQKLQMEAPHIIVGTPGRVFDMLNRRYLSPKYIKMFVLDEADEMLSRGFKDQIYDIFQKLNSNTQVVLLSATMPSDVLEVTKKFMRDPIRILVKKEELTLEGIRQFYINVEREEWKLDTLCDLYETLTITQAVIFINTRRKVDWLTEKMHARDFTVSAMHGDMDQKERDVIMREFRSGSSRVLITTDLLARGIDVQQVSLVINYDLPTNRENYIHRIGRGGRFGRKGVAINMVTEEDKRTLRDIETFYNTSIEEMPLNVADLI"}
{"Strand": "GCCG", "4-mer enrichment [fold]": 0.647}
{"Strand": "UGGG", "4-mer enrichment [fold]": 1.67}
{"Strand": "AGUC", "4-mer enrichment [fold]": 0.839}
{"Strand": "ACUA", "4-mer enrichment [fold]": 0.896}
{"Strand": "GUUU", "4-mer enrichment [fold]": 1.31}
{"Strand": "UAAA", "4-mer enrichment [fold]": 0.981}
{"Strand": "UUGU", "4-mer enrichment [fold]": 1.65}
{"Strand": "AAGC", "4-mer enrichment [fold]": 0.654}
{"data": "Study 2", "target": "PABPC1L2, full length, GST fusion (mouse, UniProt A0ABA7IW68)", "method": "RNAcompete", "form": "RNA", "sample": "in vitro", "concentration": "20 nM", "setting": "7-mer, probes averaged, single round", "reference": "mean of 7-mers", "direction": "higher = stronger binding", "Construct (chain)": "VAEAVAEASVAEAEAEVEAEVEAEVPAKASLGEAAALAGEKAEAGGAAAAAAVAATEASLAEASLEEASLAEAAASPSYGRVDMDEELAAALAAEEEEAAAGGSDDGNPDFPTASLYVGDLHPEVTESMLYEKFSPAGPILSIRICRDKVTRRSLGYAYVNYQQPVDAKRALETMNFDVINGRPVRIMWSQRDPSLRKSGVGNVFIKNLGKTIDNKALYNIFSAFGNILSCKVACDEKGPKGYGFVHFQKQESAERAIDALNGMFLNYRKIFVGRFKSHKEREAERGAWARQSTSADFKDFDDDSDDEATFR"}
{"Strand": "AUAUCCG", "7-mer Z-score": -0.171}
{"Strand": "GUACGGC", "7-mer Z-score": -0.0192}
{"Strand": "CUUAGUG", "7-mer Z-score": -0.275}
{"Strand": "AGUCGUA", "7-mer Z-score": -0.271}
{"Strand": "GACGCAG", "7-mer Z-score": 0.0243}
{"Strand": "UCAUUUU", "7-mer Z-score": -0.289}
{"Strand": "UCGUGUC", "7-mer Z-score": -0.463}
{"Strand": "GGAAGGA", "7-mer Z-score": 0.207}
{"data": "Mixed results"}
{"Structure (SMILES)": "CCCOc1ccc([C@@H]2[C@@H](C(=O)O)[C@H](c3ccc4c(c3)OCO4)CN2CC(=O)Nc2c(CC)cccc2CC)cc1", "tested on": "TSSK1B (Homo sapiens, UniProt Q9BXA7)", "observed": "cell-free assay", "method": "competition with immobilised ligand", "concentration": "1 µM", "measurement": "remaining binding", "value": "100%"}
{"Structure (SMILES)": "CCOC(=O)[C@@H]1CSCC(=O)N[C@H](CC)C(=O)N(C)[C@@H](C)C(=O)N[C@@H](CC(C)C)C(=O)N2CCC[C@H]2C(=O)N(CC)CC(=O)N[C@@H](CC(C)C)C(=O)N(C)[C@H](C)C(=O)N[C@@H](CC(C)C)C(=O)N1C", "sample": "hydrocarbon/water", "measurement": "logD", "value": -0.348}
{"Structure (SMILES)": "COc1ccc2cc(OCC3(C(=O)O)CN(C(=O)c4ccc(F)cc4)C3)ccc2c1", "tested on": "CLK4 (Homo sapiens, UniProt Q9HAZ1)", "observed": "cell-free assay", "method": "competition with immobilised ligand", "concentration": "1 µM", "measurement": "remaining binding", "value": "100%"}
{"note": "Excerpt of the above (study 1):"}
{"Strand": "AGUC", "4-mer enrichment [fold]": 0.839}
{"Strand": "ACUA", "4-mer enrichment [fold]": 0.896}
